# Published values of several laboratories.
# Compare with care: the assays were run in different laboratories. ± gives the spread as reported.
SMILES,target or system,test,system,setting,scale,measurement,value
Cn1ncnc1[C@H]1c2n[nH]c(=O)c3cc(F)cc(c23)N[C@@H]1c1ccc(F)cc1,SK-OV-3 PALB2 knockout,colony formation,,,,IC50,0.000549 µM
Cn1cc(-c2ccc(-c3cncc(Cl)c3N3CCC4(CCNC4=O)CC3)cc2)cn1,COLO 205,"microarray, measured: E2F1",,"concentration not given, 4 h",relative to: untreated cells,fold change in expression,-1.85
COC(=O)CN=c1scc(-c2ccccc2)n1-c1ccc(Cl)cc1,Panc 04.03,"cell viability, MTT",,72 h,,IC50,5.26 µM
CC(=O)N1CCC(Nc2cc(C(=O)NC[C@H](O)CN3CCc4ccccc4C3)ncn2)CC1,PK-1 MTAP deleted,cell viability,,240 h,,IC50,0.024 µM
CN(C)C/C=C/C(=O)Nc1cc2c(Nc3ccc(F)c(Cl)c3)ncnc2cc1O[C@H]1CCOC1,NCI-H1975 FKBP12F36V-PTPN2,"cell viability, CellTiter-Glo",,6 days,,IC50,2.1 µM
Cc1[nH]c(/C=C2\C(=O)Nc3ccc(S(=O)(=O)N(C)c4cccc(Cl)c4)cc32)c(C)c1C(=O)N1CCN(C)CC1,Rh6 (embryonal rhabdomyosarcoma),cell growth,,3 days,,IC50,1.84 ± 0.7 µM
Cc1c(C(=O)O)ccc2c3n(nc12)[C@@H]1[C@H](C3)N(CC2CC2)[C@@]2(C(=O)Nc3cc(Cl)ccc32)[C@H]1c1cccc(Cl)c1F,UACC-812 (MDM2-amplified),"cell growth, alamarBlue",,120 h,,IC50,0.24 µM
COc1cccc2c1C(=O)c1c(O)c3c(c(O)c1C2=O)C[C@@](O)(C(=O)CO)C[C@@H]3O[C@H]1C[C@H](N)[C@H](O)[C@H](C)O1,THLE-2 without CYP expression,cytotoxicity,,48 h,,IC50,3.5 ± 1 µM
CCCCN1C[C@H](O)[C@@H](O)[C@@H](O)[C@H]1CO,sample E patient fibroblasts,"GlcCer level lowering, LC-MS/MS, measured: GlcCer d18:1/24:1",,216 h,,IC50,51.8 µM
COC(=O)CN=c1scc(-c2ccccc2)n1-c1ccc(C)cc1,Panc 04.03,"cell viability, MTT",,72 h,,IC50,44.6 µM
Cc1nc(Nc2ncc(C(=O)Nc3c(C)cccc3Cl)s2)cc(N2CCN(CCO)CC2)n1,NOK,"viability, CellTiter-Glo",,72 h,,IC50,0.44 µM
N[C@@H](CCCCNC(=O)CCCC[C@@H]1SC[C@@H]2NC(=O)N[C@@H]21)C(=O)O,,"binding, MIDAS equilibrium dialysis LC-MS",A2AR-BRIL thermostabilized,concentration not given,relative to: no-protein control,log2 fold change,-0.00388
CN(C)c1ccc2cc(C(=O)N[C@@H](CCCNC(=N)CCl)C(=O)NCc3ccccc3)ccc2c1,LLC,"cell viability, MTT",,48 h,,IC50,6.1 ± 1.6 µM
Cc1cc(Nc2ncc(Cl)c(Nc3ccccc3S(=O)(=O)C(C)C)n2)c(OC(C)C)cc1C1CCNCC1,Rh2 (embryonal rhabdomyosarcoma),cell growth,,3 days,,IC50,0.77 ± 0.15 µM
CC(C)(C)c1cc(NC(=O)Nc2ccc(-c3cn4c(n3)sc3cc(OCCN5CCOCC5)ccc34)cc2)no1,"primary AML mononuclear cells, FLT3-ITD negative","cell viability, MTS",,ex vivo,,IC50,2.33 µM
CCN1CCN(Cc2ccc(NC(=O)c3ccc(C)c(/C=C/c4cnc5[nH]ccc5c4OC)c3)cc2C(F)(F)F)CC1,Ba/F3 BCR-ABL,"cell proliferation, CellTiter-Glo",,48 h,,IC50,< 0.01 µM
O=C(c1cc(Cc2n[nH]c(=O)c3ccccc23)ccc1F)N1CCN(C(=O)C2CC2)CC1,SK-OV-3 PALB2 knockout,colony formation,,,,IC50,0.0139 µM
O=P1(C2CCCCC2)CCCCC1,SW480,"cytotoxicity, MTT",,72 h,,IC50,13.8 to 16.1 µM
Nc1ccn([C@H]2C[C@H](O)[C@@H](COP(=O)(O)OP(=O)(O)OP(=O)(O)O)O2)c(=O)n1,,"binding, MIDAS equilibrium dialysis LC-MS",A2AR-BRIL thermostabilized,concentration not given,relative to: no-protein control,log2 fold change,-0.398
COc1cc2c3c(n(CCCn4ccnc4)c(=O)c2cc1OC)-c1nc2c(cc1C3=O)OCO2,CHLA-99 Ewing sarcoma cells,"cytotoxicity, MTS",,72 h,,IC50,0.265 ± 0.026 µM
Cc1c(C)c2c(c(C)c1O)CCC(C)(COc1ccc(CC3SC(=O)NC3=O)cc1)O2 (stereo not drawn),iPSC-derived hepatocytes B1,cell viability,,"72 h, differentiation day 23",,IC50,48 µM
COc1ccc(F)cc1C(=O)NCc1ccc(-c2nn([C@@H](C)C(F)(F)F)c(N)c2C(N)=O)cc1,healthy-donor PBMC CD19+ B cells,measured: CD69,,together with: anti-IgM,,IC50,0.0047 ± 0.0017 µM
O=C1CC[C@H](N2Cc3cc(N4CCN(CC5CCN(c6ccc([C@@H]7c8ccc(O)cc8CC[C@@H]7c7ccccc7)cc6)CC5)CC4)ccc3C2=O)C(=O)N1,T47D-KBluc,"reporter gene, antagonist, ERE-luciferase",,"24 h, together with: estradiol",,IC50,0.0011 µM
O=C(O)COCC(=O)O,iPSC-derived hepatocytes B1,cell viability,,"72 h, differentiation day 23",,IC50,11100 µM
COc1cc2nccc(Oc3ccc(NC(=O)C4(C(=O)Nc5ccc(F)cc5)CC4)cc3)c2cc1OC,Rh6 (embryonal rhabdomyosarcoma),cell growth,,3 days,,IC50,10.4 ± 3.67 µM
c1ccc([I+]c2ccccc2)cc1,Caco-2,"cell growth, trypan blue count",,48 h,,IC50,~0.155 µM
CCc1nc(C(N)=O)c(Nc2ccc(N3CCC(N4CCN(C)CC4)CC3)c(OC)c2)nc1NC1CCOCC1,"primary AML mononuclear cells, FLT3-ITD negative","cell viability, MTS",,ex vivo,,IC50,2.96 µM
C=C1C[C@](OC)([C@H](OCOC/C=C/B2OC(CC)(CC)C(CC)(CC)O2)C(=O)NC[C@@H]2C[C@@H](OC)C(C)(C)[C@@H](C[C@@H](COC)OC)O2)O[C@H](C)[C@@H]1C,Renca,"cell viability, sulforhodamine B",,"72 h, 37 °C, together with: H2O2 100 µM",,IC50,0.003 ± 0.0003 µM
CC1(C)CCC(CN2CCN(c3ccc(C(=O)NS(=O)(=O)c4ccc(NCC5CCOCC5)c([N+](=O)[O-])c4)c(Oc4cnc5[nH]ccc5c4)c3)CC2)=C(c2ccc(Cl)cc2)C1,CD19+ B cells from healthy blood,"cell viability, high-throughput flow cytometry",,,,IC50,0.00423 µM
COc1cccc2c1C(=O)c1c(O)c3c(c(O)c1C2=O)C[C@@](O)(C(=O)CO)C[C@@H]3O[C@H]1C[C@H](N)[C@H](O)[C@H](C)O1,S102,"cytotoxicity, MTT",,75 h,,IC50,1.98 µM
C#CCCCCCCCCCCCC(O)CC(O)CO (stereo not drawn),Vero,cytotoxicity,,,,IC50,> 47.6 µg/mL
Cc1nc(NC(=O)N2CCC[C@H]2C(N)=O)sc1-c1ccnc(C(C)(C)C(F)(F)F)c1,NCI-H1563,"growth rate inhibition, CellTiter-Glo",,120 h,,IC50,0.758 µM
C[C@@H]1CC[C@@H]([C@](O)(CNCc2cccc3ccccc23)COCc2ccccc2)[C@H](OCc2ccccc2)C1,HeLa,"cell growth, inhibitor, MTT",,72 h,,IC50,2.56 µM

# Some of these lines once more:
SMILES,target or system,test,system,setting,scale,measurement,value
COc1cccc2c1C(=O)c1c(O)c3c(c(O)c1C2=O)C[C@@](O)(C(=O)CO)C[C@@H]3O[C@H]1C[C@H](N)[C@H](O)[C@H](C)O1,S102,"cytotoxicity, MTT",,75 h,,IC50,1.98 µM
C#CCCCCCCCCCCCC(O)CC(O)CO (stereo not drawn),Vero,cytotoxicity,,,,IC50,> 47.6 µg/mL
Cc1nc(NC(=O)N2CCC[C@H]2C(N)=O)sc1-c1ccnc(C(C)(C)C(F)(F)F)c1,NCI-H1563,"growth rate inhibition, CellTiter-Glo",,120 h,,IC50,0.758 µM
C[C@@H]1CC[C@@H]([C@](O)(CNCc2cccc3ccccc23)COCc2ccccc2)[C@H](OCc2ccccc2)C1,HeLa,"cell growth, inhibitor, MTT",,72 h,,IC50,2.56 µM
